Assay results of several laboratories.
Numbered parts are unrelated; each lists some results of a single study.

Sample 1
Target: Interferon regulatory factor 3, full length, phosphomimetic (IRF3, Homo sapiens, UniProt Q14653, residues 1-427, S386D/S396D/S398D/S402D/T404D/S405D)
Method: protein-binding microarray
Molecule type: double-stranded DNA, one strand shown
Sample: in vitro
Concentration: 2540 nM top
Notes: 60-bp whole probe
Added: salmon DNA 0.4 mg/ml
Baseline: random background probes
Direction: higher = stronger binding
All sequences stand within: GCCTAGCAC … GTCTTGATTCGCTTGACGCTGCTG
Target sequence (chain): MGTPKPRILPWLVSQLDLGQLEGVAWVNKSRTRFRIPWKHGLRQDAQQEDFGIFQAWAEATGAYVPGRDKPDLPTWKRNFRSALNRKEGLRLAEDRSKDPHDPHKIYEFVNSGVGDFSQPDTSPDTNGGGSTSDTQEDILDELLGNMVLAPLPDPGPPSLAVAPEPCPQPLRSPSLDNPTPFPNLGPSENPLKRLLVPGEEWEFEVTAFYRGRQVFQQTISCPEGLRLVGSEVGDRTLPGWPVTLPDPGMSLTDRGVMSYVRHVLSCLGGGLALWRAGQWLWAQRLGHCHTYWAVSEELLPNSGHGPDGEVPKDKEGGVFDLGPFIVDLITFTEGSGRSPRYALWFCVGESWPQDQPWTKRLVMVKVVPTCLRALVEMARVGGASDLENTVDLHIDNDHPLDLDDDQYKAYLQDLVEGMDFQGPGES
`TTTTTTTTGTATTTTTGATAGTGCTAG`: “fitted relative affinity” 1.28 z-score.
`GACGGACGGCTTCTCCTGACGTGCTAG` — result for “fitted relative affinity”: -0.717 z-score.
For `GCGCTTCTCGAGTGCCGGCTGGTGCTA`, “fitted relative affinity” read 0.108 z-score.
`TCAAAAATAGAAACTCGTACTGTGCTA` — result for “fitted relative affinity”: -0.0336 z-score.
`TTTGGTGTCTTTTGTGGAAACGTGCTA`: “fitted relative affinity” 0.239 z-score.
`TTAGGTAACGGGACTGGGTTAGTGCTA` — result for “fitted relative affinity”: -0.64 z-score.
`GACGGCCTCCTTCTCCTGACGTGCTAG` — result for “fitted relative affinity”: 0.742 z-score.

Sample 2
Target: RNA binding protein fox-1 homolog 2, RRM domain, GST-SBP tag (RBFOX2, Homo sapiens, UniProt O43251-10, residues 100-194)
Method: RNA Bind-n-Seq
Molecule type: RNA
Sample: in vitro
Concentration: 365 nM
Notes: natural RNA segment, single round, ends assumed
Baseline: no-protein control
Direction: higher = stronger binding
Target sequence (chain): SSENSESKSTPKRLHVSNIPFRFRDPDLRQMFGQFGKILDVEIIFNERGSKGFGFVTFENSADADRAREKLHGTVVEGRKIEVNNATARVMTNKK
`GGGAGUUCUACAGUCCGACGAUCCUGUGCACUAGCCUGUGAUUAACUUGCUUAGUAUGGUUCUCAGAUCUUGACAGUAUAUUUGAAACUGUAAAUAUGUUUGUGCCUUAAAAGGAGAGAAGAAAGUGUAGAUAUGGAAUUCUCGGGUGCCAA` — result for “RBNS enrichment (R)”: 0.651.
`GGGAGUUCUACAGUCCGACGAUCAAAUUAAAUAAAUUAUAGAAUGUAGUUGGGUGGAUUUUGGGGUGGCCAUAUAGUAAUGGAAAGCUGCAAUAAUUAGUUUUAAUACAGCUUGAAUAUUUGCUAUAUAGAAAUGGAAUUCUCGGGUGCCAA`: “RBNS enrichment (R)” 0.636.
`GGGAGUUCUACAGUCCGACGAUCGAUGUCUGUCUCCUUGCGUGUAGAUCCCAAAAGUGCUCUUCAGGGGUUCUGUGCUAGCUGAUGCAAGGACAUUAGCUCCAAAGGCUGGGGAGGGCUUGGCUCUCCCUCUGUGGAAUUCUCGGGUGCCAA` — result for “RBNS enrichment (R)”: 0.303.
`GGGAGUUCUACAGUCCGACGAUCCUGGUUAGCCAUUCCCUCACUCUCUGUUCCCUCCUGCGUGCCUGCAUUUCCUAUAGACAGGUUAAAUUUUGGGUUGAAAGUUUUGUGGGUGGGUUGGUGUCUCUUAUCGCUGGAAUUCUCGGGUGCCAA` — result for “RBNS enrichment (R)”: 0.616.
For `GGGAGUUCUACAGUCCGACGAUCACUUUUACUUUAAGAAACAACAACAAAGAGAGAGAGAGACUCGAUUCCCAGCAAGUCAGUGUCUCACAAGGGCACUGGCUAAUUACUCUUCUGUCCGCGUUGCUGAUGUCUGGAAUUCUCGGGUGCCAA`, “RBNS enrichment (R)” read 0.373.
For `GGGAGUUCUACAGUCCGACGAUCCUCUUCAAAAAAUUUGCAUGUCUGCUGUGAAUUUUCAUCUAGUUCCCCAAUCGAUGCUCUCAGGGUCAUCUCGGGGAUCACAGGGAUCCUUAAAUCUCCAUUCUGUUUGUUGGAAUUCUCGGGUGCCAA`, “RBNS enrichment (R)” read 0.996.
`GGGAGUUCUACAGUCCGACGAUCCAUGUCCAGCUUCAAAGAGUUGUGCAUGAACUCGGUAAUACACAUCACACGGCUGAGAGUCCCCUUUCCAGGCAGGGCCAGCAUGUGUAGAAUAUCUUUCAGAAUAUGGUUGGAAUUCUCGGGUGCCAA` — result for “RBNS enrichment (R)”: 0.818.
Under “RBNS enrichment (R)”, `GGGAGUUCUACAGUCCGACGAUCGCCGAGGUUUCUAGUGCUUCAUAGUGGCUCUUGUUCUGAGUUCUGUCCUGAGCCUCUUGUUACCUUGUUACUUCAGCCUAGAGGACUGAGAAUGGAGAGCCCGAGAAGUGUGGAAUUCUCGGGUGCCAA` is recorded as 0.703.

Sample 3
Target: Ras GTPase-activating protein-binding protein 1, C-terminal RGG region (G3BP1, Homo sapiens, UniProt Q13283)
UniProt Q13283, sequence (whole entry, looked up): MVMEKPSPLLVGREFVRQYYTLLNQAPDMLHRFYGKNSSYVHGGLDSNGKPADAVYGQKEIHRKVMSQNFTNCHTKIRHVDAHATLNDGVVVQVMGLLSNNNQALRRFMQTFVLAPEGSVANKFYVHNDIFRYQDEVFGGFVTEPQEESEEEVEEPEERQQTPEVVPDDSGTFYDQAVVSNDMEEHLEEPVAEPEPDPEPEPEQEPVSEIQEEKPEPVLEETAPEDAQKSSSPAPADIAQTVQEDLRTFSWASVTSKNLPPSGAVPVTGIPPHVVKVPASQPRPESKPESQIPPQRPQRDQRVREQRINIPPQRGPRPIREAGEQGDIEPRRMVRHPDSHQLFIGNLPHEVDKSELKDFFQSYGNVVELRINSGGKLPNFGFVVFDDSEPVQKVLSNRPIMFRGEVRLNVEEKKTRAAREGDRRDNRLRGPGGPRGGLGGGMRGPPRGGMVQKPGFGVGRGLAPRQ
Method: RNA Bind-n-Seq
Molecule type: RNA
Sample: in vitro
Concentration: 1 µM
Notes: whole 134-nt RNA, ends assumed
Added: 150 mM KCl
Baseline: input library
Direction: higher = stronger binding
For `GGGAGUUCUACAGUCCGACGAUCUGGCCCUGGUGGCAUGCGGGGAGGAAGAGGUGGCCUCAAGGAUCGUGGUGGUCCCGGUGGAAUGUUCAGAGGUGGCCGUGGUGGAGACAGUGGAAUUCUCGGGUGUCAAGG`, the log2 enrichment was 2.
The log2 enrichment of `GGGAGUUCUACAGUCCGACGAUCUGGGAGGUGGAUUUUCUUUAUUUUUUUAGCUCAUUUCCAGGGGUGGGAAUUUUUUUUUAAUAUGUGUCAUGAAUAAAGUUGUUUUUGAAAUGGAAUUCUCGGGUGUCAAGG` is reported as 3.13.
For `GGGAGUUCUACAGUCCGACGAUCACCAUGCAGGUGGGCAUCUUUGGGAAGUGGGGCAAGGGGGGGAUAGGGAGGGGGGUAACACUUUGGGAACAGGUGGUCCCAGGUUGUUUCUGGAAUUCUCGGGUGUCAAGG`, the log2 enrichment was 2.53.
With `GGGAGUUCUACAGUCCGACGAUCCAAGUCCUGUGCUACACAUCGUAUGUACCGAAUCGGAAAAGGAAAAGGAAAAGGGAAAGUAUUAUGUUACGCCGUUCGGAUCUGCACUUCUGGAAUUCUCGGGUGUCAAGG` the log2 enrichment was -1.87.
`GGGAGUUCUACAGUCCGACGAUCGCAGGAAGUAAAAACAAAUGGAAAUGCUUCGGAUAGUGGCAGGCGUGGGGGUUGCUAAGGAAAGGGUGGGAUGGGAGUGGGUAAAGAGUUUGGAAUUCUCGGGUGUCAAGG` gave a log2 enrichment of 1.77.
`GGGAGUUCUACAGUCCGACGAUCUCCUGUGCUACACAUCGUAUGUACCGAAUCGGGGAAAAAGGGGUUUGGGGAAAAAGGGGAAAGUAUUAUGUUACGCCGUUCGGAUCUGCAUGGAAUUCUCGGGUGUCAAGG` has a log2 enrichment of 1.82.
`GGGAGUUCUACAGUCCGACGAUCAGUCCUGUGCUACACAUCGUAUGUACCGAAUCGGAAAAAAAGGAAAAAGGAAAAAGGAAAGUAUUAUGUUACGCCGUUCGGAUCUGCACUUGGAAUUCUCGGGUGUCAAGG` has a log2 enrichment of -2.1.
`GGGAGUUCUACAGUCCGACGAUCCUCAAGUCCUGUGCUACACAUCGUAUGUACCGAAUCGGGAAGGGGAAGGGAAGGAAAGUAUUAUGUUACGCCGUUCGGAUCUGCACUUCCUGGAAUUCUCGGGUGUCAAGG` gave a log2 enrichment of -0.942.
The log2 enrichment of `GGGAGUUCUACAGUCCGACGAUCCCUGUGCUACACAUCGUAUGUACCGAAUCGGGGAAAAAAAGGGGAAAGGGGAAAAAGGGGAAAGUAUUAUGUUACGCCGUUCGGAUCUGCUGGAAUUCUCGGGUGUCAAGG` is reported as 0.861.

Mixed results
The fold induction of `PhoQ, residues 284 288 289 292 302 303 SACGEM` is reported as 23.9 (PhoP, residues 12 14 15 18 19 LYHSL (Escherichia coli, UniProt P23836); Sort-seq, measured: YFP reporter; E. coli; PhoQ-PhoP variant library, added: 10 µM Mg2+; baseline: high Mg2+ state, higher = stronger signaling).

Excerpt of the above (sample 3):
`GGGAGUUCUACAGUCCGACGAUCUCCUGUGCUACACAUCGUAUGUACCGAAUCGGGGAAAAAGGGGUUUGGGGAAAAAGGGGAAAGUAUUAUGUUACGCCGUUCGGAUCUGCAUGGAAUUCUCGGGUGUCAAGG` has a log2 enrichment of 1.82.
`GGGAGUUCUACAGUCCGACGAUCAGUCCUGUGCUACACAUCGUAUGUACCGAAUCGGAAAAAAAGGAAAAAGGAAAAAGGAAAGUAUUAUGUUACGCCGUUCGGAUCUGCACUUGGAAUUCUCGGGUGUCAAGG` has a log2 enrichment of -2.1.
For `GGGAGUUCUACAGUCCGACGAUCACCAUGCAGGUGGGCAUCUUUGGGAAGUGGGGCAAGGGGGGGAUAGGGAGGGGGGUAACACUUUGGGAACAGGUGGUCCCAGGUUGUUUCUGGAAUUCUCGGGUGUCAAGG`, the log2 enrichment was 2.53.
`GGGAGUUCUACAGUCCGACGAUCGCAGGAAGUAAAAACAAAUGGAAAUGCUUCGGAUAGUGGCAGGCGUGGGGGUUGCUAAGGAAAGGGUGGGAUGGGAGUGGGUAAAGAGUUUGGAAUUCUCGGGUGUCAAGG` gave a log2 enrichment of 1.77.
